Measured values pooled from the literature.
Parts stem from different laboratories: compare values within a part only. Several values in a cell are separate wells, animals, samples, runs or records. Positions count from the first letter of the parent shown.
Sequence of UniProt P9WI81 (whole entry, looked up): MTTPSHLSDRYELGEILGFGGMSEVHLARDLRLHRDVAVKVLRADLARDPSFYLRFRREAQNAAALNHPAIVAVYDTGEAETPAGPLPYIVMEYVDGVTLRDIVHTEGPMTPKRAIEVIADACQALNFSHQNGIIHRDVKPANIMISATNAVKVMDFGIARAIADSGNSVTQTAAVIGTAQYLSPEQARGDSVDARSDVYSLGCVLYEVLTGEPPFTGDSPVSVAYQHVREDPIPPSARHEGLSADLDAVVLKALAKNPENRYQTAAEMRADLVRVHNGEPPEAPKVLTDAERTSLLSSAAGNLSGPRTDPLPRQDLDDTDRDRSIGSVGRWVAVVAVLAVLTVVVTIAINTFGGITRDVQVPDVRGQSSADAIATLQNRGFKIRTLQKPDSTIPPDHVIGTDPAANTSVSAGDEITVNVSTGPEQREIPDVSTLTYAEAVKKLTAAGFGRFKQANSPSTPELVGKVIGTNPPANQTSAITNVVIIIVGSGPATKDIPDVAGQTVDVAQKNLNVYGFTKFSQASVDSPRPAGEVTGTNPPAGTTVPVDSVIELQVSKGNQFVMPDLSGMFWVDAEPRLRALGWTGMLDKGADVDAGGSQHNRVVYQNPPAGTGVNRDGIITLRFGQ
Sequence of UniProt Q9H093 (whole entry, looked up): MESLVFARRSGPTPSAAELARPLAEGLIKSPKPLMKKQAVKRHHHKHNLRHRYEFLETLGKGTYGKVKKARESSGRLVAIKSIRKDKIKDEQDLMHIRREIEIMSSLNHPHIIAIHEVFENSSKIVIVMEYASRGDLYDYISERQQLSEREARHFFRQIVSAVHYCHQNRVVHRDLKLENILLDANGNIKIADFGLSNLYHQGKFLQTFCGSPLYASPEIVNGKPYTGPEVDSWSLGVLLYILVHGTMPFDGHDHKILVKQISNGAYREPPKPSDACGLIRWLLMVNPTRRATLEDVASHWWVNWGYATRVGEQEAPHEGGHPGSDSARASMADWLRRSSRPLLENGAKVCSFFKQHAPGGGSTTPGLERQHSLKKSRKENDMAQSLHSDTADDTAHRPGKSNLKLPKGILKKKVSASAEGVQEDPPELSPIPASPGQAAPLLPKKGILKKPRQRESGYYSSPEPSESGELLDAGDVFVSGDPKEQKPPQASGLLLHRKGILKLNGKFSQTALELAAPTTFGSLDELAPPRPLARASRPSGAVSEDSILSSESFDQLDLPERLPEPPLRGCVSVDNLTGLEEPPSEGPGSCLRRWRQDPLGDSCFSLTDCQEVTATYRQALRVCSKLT
Sequence of UniProt Q8WTQ7 (whole entry, looked up): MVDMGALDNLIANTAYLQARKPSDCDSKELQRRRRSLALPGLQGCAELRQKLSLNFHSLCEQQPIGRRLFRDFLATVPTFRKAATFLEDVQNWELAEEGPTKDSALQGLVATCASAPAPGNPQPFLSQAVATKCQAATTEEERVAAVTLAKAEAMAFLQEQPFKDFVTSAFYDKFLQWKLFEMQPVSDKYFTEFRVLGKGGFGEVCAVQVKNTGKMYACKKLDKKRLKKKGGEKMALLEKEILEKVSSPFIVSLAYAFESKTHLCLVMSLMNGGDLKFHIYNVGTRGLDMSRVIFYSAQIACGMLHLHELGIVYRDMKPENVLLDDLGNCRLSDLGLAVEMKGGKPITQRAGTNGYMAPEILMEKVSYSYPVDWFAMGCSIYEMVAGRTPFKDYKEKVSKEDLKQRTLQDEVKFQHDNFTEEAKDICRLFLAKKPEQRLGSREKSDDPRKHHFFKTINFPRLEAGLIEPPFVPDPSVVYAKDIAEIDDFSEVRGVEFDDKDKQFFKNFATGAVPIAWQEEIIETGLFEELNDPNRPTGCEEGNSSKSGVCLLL
Sequence of UniProt P42336 (whole entry, unmodified, looked up): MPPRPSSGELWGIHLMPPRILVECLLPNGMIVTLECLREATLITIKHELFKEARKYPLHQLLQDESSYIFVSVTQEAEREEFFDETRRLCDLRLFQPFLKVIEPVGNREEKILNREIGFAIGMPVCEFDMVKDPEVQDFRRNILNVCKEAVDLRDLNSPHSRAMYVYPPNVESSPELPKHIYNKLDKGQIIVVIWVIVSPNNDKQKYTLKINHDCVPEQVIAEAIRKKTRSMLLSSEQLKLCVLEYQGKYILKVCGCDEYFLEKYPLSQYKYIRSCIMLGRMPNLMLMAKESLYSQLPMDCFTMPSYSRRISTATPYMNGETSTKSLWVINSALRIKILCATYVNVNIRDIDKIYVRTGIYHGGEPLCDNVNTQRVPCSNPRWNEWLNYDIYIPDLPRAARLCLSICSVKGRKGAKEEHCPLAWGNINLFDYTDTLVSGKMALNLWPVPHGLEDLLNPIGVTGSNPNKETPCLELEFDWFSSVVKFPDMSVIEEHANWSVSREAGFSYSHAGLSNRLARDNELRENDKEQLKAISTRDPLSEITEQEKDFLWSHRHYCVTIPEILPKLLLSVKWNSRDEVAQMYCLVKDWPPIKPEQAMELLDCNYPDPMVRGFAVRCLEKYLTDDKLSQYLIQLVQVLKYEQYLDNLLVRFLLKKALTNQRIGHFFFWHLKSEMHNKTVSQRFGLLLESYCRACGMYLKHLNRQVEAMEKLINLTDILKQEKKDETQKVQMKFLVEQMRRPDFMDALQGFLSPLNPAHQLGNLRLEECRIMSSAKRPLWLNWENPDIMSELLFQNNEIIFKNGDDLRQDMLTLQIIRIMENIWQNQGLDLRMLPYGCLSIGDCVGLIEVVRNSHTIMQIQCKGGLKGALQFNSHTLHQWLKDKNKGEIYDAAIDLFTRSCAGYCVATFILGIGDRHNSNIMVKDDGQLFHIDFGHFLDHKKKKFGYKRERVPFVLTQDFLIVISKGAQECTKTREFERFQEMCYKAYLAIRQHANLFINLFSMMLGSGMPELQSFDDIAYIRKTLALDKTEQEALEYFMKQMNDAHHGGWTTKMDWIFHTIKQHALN
Sequence of UniProt P35626 (whole entry, looked up): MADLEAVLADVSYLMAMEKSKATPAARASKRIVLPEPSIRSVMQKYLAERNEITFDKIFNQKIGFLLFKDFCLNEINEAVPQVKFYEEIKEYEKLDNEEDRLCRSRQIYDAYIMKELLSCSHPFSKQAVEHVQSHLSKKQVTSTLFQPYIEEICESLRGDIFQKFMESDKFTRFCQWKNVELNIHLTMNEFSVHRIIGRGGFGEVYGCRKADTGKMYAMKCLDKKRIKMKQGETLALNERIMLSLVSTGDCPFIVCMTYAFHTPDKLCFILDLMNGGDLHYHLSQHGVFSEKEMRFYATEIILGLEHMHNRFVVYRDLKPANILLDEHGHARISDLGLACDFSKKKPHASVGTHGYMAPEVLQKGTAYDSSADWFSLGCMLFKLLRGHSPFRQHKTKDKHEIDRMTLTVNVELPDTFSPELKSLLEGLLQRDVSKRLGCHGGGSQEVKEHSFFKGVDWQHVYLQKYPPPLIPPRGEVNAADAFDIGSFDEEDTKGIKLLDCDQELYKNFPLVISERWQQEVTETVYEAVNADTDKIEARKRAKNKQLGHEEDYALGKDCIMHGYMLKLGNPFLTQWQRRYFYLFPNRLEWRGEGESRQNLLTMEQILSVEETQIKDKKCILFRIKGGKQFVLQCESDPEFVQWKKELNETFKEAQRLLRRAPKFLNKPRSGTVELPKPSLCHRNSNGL
Sequence of UniProt O75914 (whole entry, looked up): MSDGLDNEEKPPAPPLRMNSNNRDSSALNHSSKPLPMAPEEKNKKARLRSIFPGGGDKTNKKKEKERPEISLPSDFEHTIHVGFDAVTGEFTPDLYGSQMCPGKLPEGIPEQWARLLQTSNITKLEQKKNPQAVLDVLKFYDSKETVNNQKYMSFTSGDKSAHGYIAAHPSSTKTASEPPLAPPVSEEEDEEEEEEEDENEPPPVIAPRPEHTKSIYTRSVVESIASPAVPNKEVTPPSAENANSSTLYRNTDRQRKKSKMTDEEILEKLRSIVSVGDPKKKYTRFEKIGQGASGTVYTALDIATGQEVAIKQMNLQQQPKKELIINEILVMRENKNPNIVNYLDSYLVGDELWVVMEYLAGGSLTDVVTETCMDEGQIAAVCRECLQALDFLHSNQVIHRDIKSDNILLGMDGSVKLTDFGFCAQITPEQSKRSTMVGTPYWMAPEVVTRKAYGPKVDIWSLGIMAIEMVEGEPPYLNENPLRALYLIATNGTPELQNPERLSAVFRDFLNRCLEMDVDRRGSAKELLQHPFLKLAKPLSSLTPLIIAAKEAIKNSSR
Sequence of UniProt P19784 (whole entry, looked up): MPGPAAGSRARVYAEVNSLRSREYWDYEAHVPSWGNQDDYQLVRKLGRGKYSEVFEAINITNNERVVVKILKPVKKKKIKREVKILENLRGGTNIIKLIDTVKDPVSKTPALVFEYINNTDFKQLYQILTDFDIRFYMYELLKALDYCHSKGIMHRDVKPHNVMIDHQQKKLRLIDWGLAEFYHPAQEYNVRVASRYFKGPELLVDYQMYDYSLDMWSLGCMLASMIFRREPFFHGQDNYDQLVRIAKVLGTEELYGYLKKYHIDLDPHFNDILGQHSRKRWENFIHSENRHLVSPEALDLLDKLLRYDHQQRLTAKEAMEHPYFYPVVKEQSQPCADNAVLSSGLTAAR
Sequence of UniProt P54646 (whole entry, looked up): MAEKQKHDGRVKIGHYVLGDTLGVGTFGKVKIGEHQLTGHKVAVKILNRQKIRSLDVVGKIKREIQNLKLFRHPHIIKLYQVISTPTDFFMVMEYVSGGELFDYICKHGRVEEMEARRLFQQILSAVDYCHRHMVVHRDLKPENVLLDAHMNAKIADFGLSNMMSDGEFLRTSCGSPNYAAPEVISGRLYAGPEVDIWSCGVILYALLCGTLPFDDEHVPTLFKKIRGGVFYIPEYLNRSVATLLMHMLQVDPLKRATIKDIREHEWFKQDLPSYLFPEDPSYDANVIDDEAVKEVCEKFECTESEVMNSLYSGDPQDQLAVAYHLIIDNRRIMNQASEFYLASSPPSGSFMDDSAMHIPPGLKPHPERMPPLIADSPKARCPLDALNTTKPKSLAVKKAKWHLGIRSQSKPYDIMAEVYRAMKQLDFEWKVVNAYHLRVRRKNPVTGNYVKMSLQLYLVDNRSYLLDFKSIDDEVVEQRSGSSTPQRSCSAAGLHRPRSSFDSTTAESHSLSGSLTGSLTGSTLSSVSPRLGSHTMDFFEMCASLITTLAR

Set 1 — effect on: cell-free assay; technique: competition with immobilised ligand; tested at: 1 µM
Compound: Cn1cncc1[C@](O)(COc1ccc(C#N)cc1-c1ccc(OC(F)(F)F)cc1)c1ccc(C#N)cc1
| target | remaining binding [%] |
| --- | --- |
| Receptor-type tyrosine-protein kinase FLT3, autoinhibited (FLT3, Homo sapiens, UniProt P36888) | 100 |
| MAP4K2 (Homo sapiens, UniProt Q12851) | 100 |
| PRKAA2 (Homo sapiens, UniProt P54646) | 100 |
| PAK3 (Homo sapiens, UniProt O75914) | 96 |
| NUAK2 (Homo sapiens, UniProt Q9H093) | 100 |
| GRK3 (Homo sapiens, UniProt P35626) | 48 |
| EPHA6 (Homo sapiens, UniProt Q9UF33) | 100 |
| PIK3CA (Homo sapiens, UniProt P42336, E542K) | 80 |
| Ribosomal protein S6 kinase alpha-2, N-terminal kinase domain (RPS6KA2, Homo sapiens, UniProt Q15349) | 89 |
| NEK5 (Homo sapiens, UniProt Q6P3R8) | 72 |
| pknB (Mycobacterium tuberculosis, UniProt P9WI81) | 97 |
| GRK7 (Homo sapiens, UniProt Q8WTQ7) | 100 |
| CSNK2A2 (Homo sapiens, UniProt P19784) | 100 |
| CDK15 (Homo sapiens, UniProt Q96Q40) | 59 |

Set 2 — target: CCNE1, cyclin fold, Cln2 fusion (human); technique: yeast growth competition, sequencing; matrix: yeast; notes: strong parent motif; reference: not given; direction: higher = stronger binding; parent: viral docking peptide; YKVKRRLVFGADD
| Substitution | normalised enrichment score |
| --- | --- |
| R5T | 0.672 |
| G10H | 5.09 |
| A11E | 6.85 |
| G10F | 4.76 |
| K4P | 1.69 |
| K2Y | 5.4 |
| D12N | 5.48 |
| D12Y | 4.94 |

Set 3 — effect on: peptide-MHC binding; form: peptide; tested at: concentration not given
Target: HLA class I histocompatibility antigen, A alpha chain, allele A*80:01 (Homo sapiens, UniProt P04439)
| Molecule | binding |
| --- | --- |
| AENCYNLEI | inactive |
| YTNYPFLFF | inactive |
| LLDLEGHIL | inactive |
| FHVNPAFVL | inactive |
| AILAGEHKC | inactive |
| MGFPSLATK | inactive |
| FKYDSTKPL | inactive |
| KTFEWGVFY | inactive |

Other studies, line by line
| Structure (SMILES) | organism | test | system | conditions | endpoint | value |
| --- | --- | --- | --- | --- | --- | --- |
| CNC(=O)c1ccc(-c2cnn3ccc(C(=O)N(C)c4ccc(Cl)c(C(=O)OC)c4)cc23)cc1 | Cryptosporidium parvum |  | neonatal calves | dose not given, day 4 post-treatment | fecal oocyst count | 18000 oocysts/g feces and 1160 oocysts/g feces and 1550 oocysts/g feces and 54 oocysts/g feces |
| c1ccc(Oc2ccc(Nc3c4c(nc5ccccc35)CCC4)cc2)cc1 | Leishmania donovani | parasite growth | DD8 amphotericin B-resistant, promastigotes | 0.66 µM | inhibition | 12% and 20% and 15% and 14% |

A few entries again (set 2):
| Substitution | normalised enrichment score |
| --- | --- |
| G10H | 5.09 |
| A11E | 6.85 |
| G10F | 4.76 |
| K4P | 1.69 |
